# Results from different studies.
# Numbered parts are unrelated; each lists some results of a single study. Substitutions count along the parent as printed.

# Block 1
# Target: ABI1, truncated, D143A, DHFR fusion (Arabidopsis thaliana)
# Technique: DHFR PCA, deep sequencing
# Matrix: yeast
# Setting: methotrexate growth selection, single substitutions
# With: (+)-ABA 4.8 µM
# Relative to: wild-type fitted maximum
# Reading: higher = stronger binding
# Starting sequence: PYL1, truncated, DHFR fusion (Arabidopsis thaliana); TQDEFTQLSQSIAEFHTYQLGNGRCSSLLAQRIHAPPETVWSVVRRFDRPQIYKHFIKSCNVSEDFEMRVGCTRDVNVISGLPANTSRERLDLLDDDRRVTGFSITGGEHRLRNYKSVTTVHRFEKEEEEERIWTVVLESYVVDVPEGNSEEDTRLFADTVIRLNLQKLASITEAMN
Change,relative binding score [%]
I52C,57.9
M68E,15.6
Q51V,0.413
R132E,97.4
K168P,2
V78H,18.5
L91K,-10.6
I52D,72.3
S80Q,-0.27
A175T,69.9
N114F,-11.3
R113A,67.1
Y18Q,32.1
R45L,0.0211
P50E,7.75
Q2V,77
L8M,55.1

# Block 2
# Target: Sal-like protein 4, full length isoform A (SALL4, Homo sapiens, UniProt Q9UJQ4, residues 1-1053)
# Chain of UniProt Q9UJQ4 (whole entry, looked up): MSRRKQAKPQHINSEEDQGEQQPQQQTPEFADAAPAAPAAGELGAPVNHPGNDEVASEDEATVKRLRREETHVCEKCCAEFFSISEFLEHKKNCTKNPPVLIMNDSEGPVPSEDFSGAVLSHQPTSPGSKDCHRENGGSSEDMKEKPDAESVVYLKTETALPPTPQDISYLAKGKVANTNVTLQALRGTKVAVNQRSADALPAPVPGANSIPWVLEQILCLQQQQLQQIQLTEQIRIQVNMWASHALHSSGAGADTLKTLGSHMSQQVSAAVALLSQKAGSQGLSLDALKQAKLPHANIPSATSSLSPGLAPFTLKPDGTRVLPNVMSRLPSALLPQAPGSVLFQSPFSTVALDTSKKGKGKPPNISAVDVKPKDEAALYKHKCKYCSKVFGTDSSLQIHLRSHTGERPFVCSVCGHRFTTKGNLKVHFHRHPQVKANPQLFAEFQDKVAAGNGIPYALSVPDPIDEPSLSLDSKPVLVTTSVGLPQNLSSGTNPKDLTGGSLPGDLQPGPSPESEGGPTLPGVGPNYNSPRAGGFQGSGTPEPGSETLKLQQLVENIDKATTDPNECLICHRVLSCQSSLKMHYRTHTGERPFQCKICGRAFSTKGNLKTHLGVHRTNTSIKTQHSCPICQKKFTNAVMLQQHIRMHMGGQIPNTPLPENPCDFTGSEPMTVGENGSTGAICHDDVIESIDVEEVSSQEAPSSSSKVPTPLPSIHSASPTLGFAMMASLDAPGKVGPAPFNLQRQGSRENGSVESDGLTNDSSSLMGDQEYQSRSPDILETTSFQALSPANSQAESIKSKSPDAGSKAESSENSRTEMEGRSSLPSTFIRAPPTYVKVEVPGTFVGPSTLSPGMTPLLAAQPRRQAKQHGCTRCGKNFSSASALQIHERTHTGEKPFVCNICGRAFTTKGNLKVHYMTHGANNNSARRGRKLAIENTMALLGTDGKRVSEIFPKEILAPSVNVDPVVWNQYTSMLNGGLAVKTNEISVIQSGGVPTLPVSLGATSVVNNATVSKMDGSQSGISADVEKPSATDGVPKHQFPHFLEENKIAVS
# Technique: universal PBM
# Molecule type: double-stranded DNA, one strand shown
# Matrix: in vitro
# Tested at: 600 nM
# Setting: 8-mer, flanks averaged, mean of replicates
# Reading: higher = stronger binding
Sequence,E-score
ATCTCGGC,-0.188
CGCTTCCA,-0.189
CAAGTGCA,-0.00336
AACGGAGA,-0.0121
AGTGGGGC,-0.397
TAGTCCGA,-0.083
ACGAGATC,-0.057
ATGGGGCA,-0.205
CACGGTCA,-0.0653
TCGTTCCA,0.103
ACAGATAC,0.138
CGAACCTA,-0.131
AAACACAC,0.0202
AAAGACGG,-0.104
AGGCAGTA,-0.0871
GTAGGCAC,-0.299
CAACACCA,-0.0317
GTTTGCTA,0.086
AGCAGCCA,-0.0765
AGGGCTGA,-0.175
CTCGGAAG,-0.181
AGTCACAT,0.15
ATCTAATC,0.297
AGCGAGCG,-0.137
GCTCTGGA,-0.0306

# Block 3
# Target: Ras GTPase-activating protein-binding protein 1, full length (G3BP1, Homo sapiens, UniProt Q13283)
# Chain of UniProt Q13283 (whole entry, looked up): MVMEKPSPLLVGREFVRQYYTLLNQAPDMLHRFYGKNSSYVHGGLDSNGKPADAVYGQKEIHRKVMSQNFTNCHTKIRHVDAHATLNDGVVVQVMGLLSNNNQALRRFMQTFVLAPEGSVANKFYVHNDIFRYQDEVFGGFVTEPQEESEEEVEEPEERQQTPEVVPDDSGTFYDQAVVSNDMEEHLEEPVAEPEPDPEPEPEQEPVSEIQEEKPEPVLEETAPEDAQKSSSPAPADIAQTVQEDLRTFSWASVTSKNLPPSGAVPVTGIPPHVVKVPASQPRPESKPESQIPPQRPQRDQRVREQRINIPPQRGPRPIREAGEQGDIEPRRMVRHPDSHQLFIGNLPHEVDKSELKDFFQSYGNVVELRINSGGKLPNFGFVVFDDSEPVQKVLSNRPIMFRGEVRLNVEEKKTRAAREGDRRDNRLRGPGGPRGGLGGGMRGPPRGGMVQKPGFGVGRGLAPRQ
# Technique: RNA Bind-n-Seq
# Molecule type: RNA
# Matrix: in vitro
# Tested at: 200 nM
# Setting: whole 134-nt RNA, ends assumed
# With: 150 mM LiCl
# Relative to: input library
# Reading: higher = stronger binding
# Each molecule: 7-deaza-guanosine replaces G
# Shared flanks, not repeated: GGGAGUUCUACAGUCCGACGAUC … UGGAAUUCUCGGGUGUCAAGG
Sequence,log2 enrichment
AAGUCCUGUGCUACACAUCGUAUGUACCGAAUCGGAAAGGUUUUUUUGGUUUUUGGAAAGUAUUAUGUUACGCCGUUCGGAUCUGCACUU,-2.51
CCUCAAGUCCUGUGCUACACAUCGUAUGUACCGAAUCGGGGCGGGGCGGCGGGAAAGUAUUAUGUUACGCCGUUCGGAUCUGCACUUCCA,0.0889
CUCAAGUCCUGUGCUACACAUCGUAUGUACCGAAUCGGGGCGGGGCGGGGCGGGAAAGUAUUAUGUUACGCCGUUCGGAUCUGCACUUCC,-0.21
CUCAAGUCCUGUGCUACACAUCGUAUGUACCGAAUCGGGGAAGGGAAGGAAGGGAAAGUAUUAUGUUACGCCGUUCGGAUCUGCACUUCC,-0.461
GCCCAUGCUAAAGUAAGAUUGUCUAACAAAGUUGAAGCCAUUGAUGUGGAAGAGGCCAAACGCCUCCAUCGGGAAGCUCUGAAGCAGUCU,0.0753
UCCUGUGCUACACAUCGUAUGUACCGAAUCGGGGUUUUUUUGGGGAGGGGAAAAAGGGGAAAGUAUUAUGUUACGCCGUUCGGAUCUGCA,0.105
UGGGAGGUGGAUUUUGUUGAUUUUUUUAGCUCAUUUCCAGGGGUGGGAAUUUUUUUUUAAUAUGUGUCAUGAAUAAAGUUGUUUUUGAAA,-0.114
CUCAAGUCCUGUGCUACACAUCGUAUGUACCGAAUCGGGGUUGGUUGGGGUUGGAAAGUAUUAUGUUACGCCGUUCGGAUCUGCACUUCC,0.307
CUCAAGUCCUGUGCUACACAUCGUAUGUACCGAAUCGGGGAAGGAAGGGAAGGGAAAGUAUUAUGUUACGCCGUUCGGAUCUGCACUUCC,-0.332
AAGUCCUGUGCUACACAUCGUAUGUACCGAAUCGGGGUUUGGUUUGGGGUUUGGGGAAAGUAUUAUGUUACGCCGUUCGGAUCUGCACUU,-0.669
UGGGAGGUGGAUUUUGUUUAUUUUUUUAGCUCAUUUCCAGGGGUGCGAAUUUUUUUUUAAUAUGUGUCAUGAAUAAAGUUGUUUUUGAAA,-0.906

# Block 4
# Target: CCND2, cyclin fold, Cln2 fusion (human)
# Technique: yeast growth competition, sequencing
# Matrix: yeast
# Setting: weak parent motif
# Relative to: not given
# Reading: higher = stronger binding
# Starting sequence: CUX1 docking peptide (human); SRIRRELFIEEIQ
Change,normalised enrichment score
SRIRRELFIAEIQ [E10A],0.657
SRIRAELFIEEIQ [R5A],0.126
SRIRREAFIEEIQ [L7A],0.0563
SRIRRELAIEEIQ [F8A],0.323
SRIRRELFAEEIQ [I9A],-0.205
SRIRKELLIEEIQ [R5K F8L],0.662
SRIRRELLIEEIQ [F8L],0.0157
SRIARELFIEEIQ [R4A],0.286
SRIRAEAFIEEIQ [R5A L7A],-0.106

# Block 5
# Target: RING finger protein unkempt homolog, zinc fingers 1-6, SBP tag (UNK, Homo sapiens, UniProt Q9C0B0, residues 30-357)
# Chain of UniProt Q9C0B0 (30-357, looked up): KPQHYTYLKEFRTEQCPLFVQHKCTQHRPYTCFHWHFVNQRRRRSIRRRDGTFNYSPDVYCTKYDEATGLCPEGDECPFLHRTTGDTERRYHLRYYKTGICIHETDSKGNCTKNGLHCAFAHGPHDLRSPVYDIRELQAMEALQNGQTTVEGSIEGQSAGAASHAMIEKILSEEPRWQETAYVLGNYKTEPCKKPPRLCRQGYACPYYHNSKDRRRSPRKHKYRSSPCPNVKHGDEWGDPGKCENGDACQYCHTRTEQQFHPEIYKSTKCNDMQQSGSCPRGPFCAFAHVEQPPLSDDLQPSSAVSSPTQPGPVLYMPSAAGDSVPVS
# Technique: RNA Bind-n-Seq
# Molecule type: RNA
# Matrix: in vitro
# Tested at: 100 nM
# Setting: RNA with constant flanks, vertebrate orthologous sites, ends assumed
# Relative to: input RNA pool
# Reading: higher = stronger binding
# Shared flanks, not repeated: GGGAGUUCUACAGUCCGACGAUC … CAACAGAGGAUUGAGCAUCA
Sequence,bound/input enrichment
CCCUCUGAACCCCAUAUCUUCCGUCUCAUAGUGCAGAAGUAGUCUUUUCAAUUAUAUUAUUAGCGGACUUGUUUUAAUUUUAGGGAAACCUUCAGUACAGAUACUGUGAGCUUACGUGGA,3.32 ratio
GUGGGGAUGAGGGUGGGAUGGGAAAGGGAUGUAUGGAUGUUAUUGGCAUUUUUAAGUGUUUAGAGUUUUUUGGGGUUUGGGGUGGUUUUUUCUCCUUGUUUUCCUUUUUUUCCUUUUAAU,1.8 ratio
AUUCAUCUCUUUUUAUAUGUCCAAAAGUGACUGACCUUUUCAGCAGCUGCUGGUUUUACUUAGCCCUCCCCUCUUAGAGCACGGUUACCACUGCUCUUUAACAGAUGCUGCCUGGUAAUC,0.605 ratio
AAAUCAAUAGAAUUACAUAAUACUAAAGUUACAGUUGAAAGGUAUCCAAGUAUGUGUUCGUAGUUACUAAAAAAAAUUAUAGCUGUUAUUGCCUUGUGUUUAUAGCCCUUGUUUCAGGUU,2.73 ratio
AGCAACCCAAGGAUUCAGGACUGGUUUUACAAAUAUACCAAGCAGAUACGGAACUAACAAUAGAAUUGGACAACCAAGACCAUGAUGUACUGUAAUUUAAUUUAUUUUUAUGAAGAAUAU,0.646 ratio
AGCUUCUGGUGACAUUUGGCCUGGCCUUUCAGCGUAUGAUAACAGUCCAAGGUCACCCCAUAGUCCUUCUAUUGCCACCCCACCUAGUCAGAGUUCAUCUUGCUCUGAUGCCCCUCUGCU,0.656 ratio
GAACCUAAACGUAUAGCAAAAGAGCCAAGCAGUAGCAGUUUUUGUAAAUGUAAAAAUAAUUAGAUCCAGACUUUGUUUCCUUCCAUUUUAAAAAUAAAAAAUACCUCAGUGCUAUGUUUU,1.07 ratio
CAUUUUCUCACUUUAGGUACCAUUGCCCAAUGCCCAAGAUCUUUUAUGUUCAGCUGACUGUAGGAAAUAAUGAAUUUUUUGGGGAAGGAAAGACUCGCCAAGCCGCUAGACACAACGCAG,1.09 ratio
GUGAGGAGGGGGAAAGACGAGAUUAUUCUCCCACCCCAAAUAAAGCCGAUAUAAUUUGCUUUCAGUUCUGUCUUGGAAAACAGAGCUGGCCUUUUCUCUUAAUUGUGUAACAACAUCCUC,0.623 ratio
AGAAAAUUUUAAUCAGGAAUCAGAAGGUAGAAGUACAGGACCGUGGUUAUCUUCCUCACUUAGAAAUAGAUGCACACCUUUGUUCUCUAGAAGGAGGCGAGAGGGAAGAGAUGAAUCUUC,1.3 ratio
UGUGCUUAUACUCUUCUAGGGAAGAGAUGAAUUGGGGGAAACUGUCCCCUUUUUAUAGAUUUGUUUCUAAAUUAUGACCAAAAAAUAUUUUGCUAUUUCUUUCUUUAUAUAUGGACAUCU,0.583 ratio

# Block 6
# Target: Histone acetyltransferase KAT6A, both winged helices, GST fusion (KAT6A, Homo sapiens, UniProt Q92794, residues 1-181)
# Technique: protein binding microarray
# Molecule type: double-stranded DNA, one strand shown
# Matrix: in vitro
# Tested at: not given
# Setting: 8-mer, flanks averaged, mean of 2 arrays, mostly near background
# Relative to: not given
# Reading: higher = stronger binding
# Target sequence (chain): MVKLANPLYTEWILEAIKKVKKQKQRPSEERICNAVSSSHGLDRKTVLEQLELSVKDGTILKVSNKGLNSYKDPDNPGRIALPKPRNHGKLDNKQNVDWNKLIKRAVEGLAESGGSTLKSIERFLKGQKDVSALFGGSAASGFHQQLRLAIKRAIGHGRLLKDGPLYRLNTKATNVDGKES
Sequence,E-score
AGCGACAA,-0.0996
AAATGGCG,0.109
ATAGGCAT,-0.0457
CCTAGCCC,-0.165
CTGACAGC,0.00436
AGGGATCG,-0.0922
GGCGCCCC,0.278
CCCAGATA,-0.213
AAGTGATT,-0.177
GGAAGCGA,0.0357
GGGTGACC,0.159
GAGTATTA,-0.0549
AACGAATT,-0.229
GGGACTGA,-0.0692
CTCACCCA,-0.257
CTAGGGCA,-0.165
CCAGAAAG,0.00049
GGCGTCCA,0.0406
GAGGGGAA,-0.0284
TGCTATAA,-0.214
CGTCACGC,0.265
GATTCACA,-0.114
GAGCCCGA,-0.0109

# Single results of other studies
Substance,target,assay,system,setting,how to read,quantity,value
"PhoQ, residues 284 288 289 292 302 303 TLMATV","PhoP, residues 12 14 15 18 19 NQCAL (Escherichia coli, UniProt P23836)","Sort-seq, refers to: YFP reporter",E. coli,"PhoQ-PhoP variant library, with: 10 µM Mg2+","relative to: high Mg2+ state, higher = stronger signaling",fold induction,4.07

# A few entries again (block 2):
Sequence,E-score
AGTGGGGC,-0.397
TAGTCCGA,-0.083
ACGAGATC,-0.057
ATGGGGCA,-0.205
CACGGTCA,-0.0653
TCGTTCCA,0.103
ACAGATAC,0.138
CGAACCTA,-0.131
AAACACAC,0.0202
AAAGACGG,-0.104
AGGCAGTA,-0.0871
GTAGGCAC,-0.299
CAACACCA,-0.0317
GTTTGCTA,0.086
AGCAGCCA,-0.0765
